Experimental data pooled from the literature.
Each numbered part is a random draw from the data of one study; scales do not carry over between parts. Values joined by “and” are separate records of one study, mostly repeats; a detail may differ. pIC50: −log10 of the molar value.
Sequence of UniProt P35348 (whole entry, looked up): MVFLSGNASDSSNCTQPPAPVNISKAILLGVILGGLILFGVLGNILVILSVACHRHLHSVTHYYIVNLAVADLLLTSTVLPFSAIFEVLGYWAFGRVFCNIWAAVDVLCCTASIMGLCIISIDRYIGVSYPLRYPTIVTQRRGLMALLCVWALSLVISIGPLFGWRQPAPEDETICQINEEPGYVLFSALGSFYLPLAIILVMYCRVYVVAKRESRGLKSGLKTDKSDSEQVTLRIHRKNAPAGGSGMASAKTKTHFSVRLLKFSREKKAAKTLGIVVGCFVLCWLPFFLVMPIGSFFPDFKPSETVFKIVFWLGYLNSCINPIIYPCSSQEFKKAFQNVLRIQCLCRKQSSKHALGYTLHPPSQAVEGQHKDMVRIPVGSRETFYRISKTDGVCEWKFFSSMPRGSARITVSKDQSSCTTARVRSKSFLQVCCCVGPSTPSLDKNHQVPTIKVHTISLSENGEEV
Sequence of UniProt P21728 (whole entry, looked up): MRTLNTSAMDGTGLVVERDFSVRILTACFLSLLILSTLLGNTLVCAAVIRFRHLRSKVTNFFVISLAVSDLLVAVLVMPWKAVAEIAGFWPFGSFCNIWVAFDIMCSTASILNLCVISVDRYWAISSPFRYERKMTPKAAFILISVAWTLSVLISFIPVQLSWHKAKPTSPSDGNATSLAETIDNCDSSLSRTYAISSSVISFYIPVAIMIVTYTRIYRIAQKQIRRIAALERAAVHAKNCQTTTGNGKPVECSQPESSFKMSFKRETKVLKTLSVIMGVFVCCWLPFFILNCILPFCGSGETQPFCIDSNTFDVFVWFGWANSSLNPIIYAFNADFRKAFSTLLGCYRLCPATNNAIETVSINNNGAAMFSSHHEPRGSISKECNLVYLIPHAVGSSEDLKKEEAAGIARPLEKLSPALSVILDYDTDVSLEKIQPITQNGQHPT
Sequence of UniProt P08173 (whole entry, looked up): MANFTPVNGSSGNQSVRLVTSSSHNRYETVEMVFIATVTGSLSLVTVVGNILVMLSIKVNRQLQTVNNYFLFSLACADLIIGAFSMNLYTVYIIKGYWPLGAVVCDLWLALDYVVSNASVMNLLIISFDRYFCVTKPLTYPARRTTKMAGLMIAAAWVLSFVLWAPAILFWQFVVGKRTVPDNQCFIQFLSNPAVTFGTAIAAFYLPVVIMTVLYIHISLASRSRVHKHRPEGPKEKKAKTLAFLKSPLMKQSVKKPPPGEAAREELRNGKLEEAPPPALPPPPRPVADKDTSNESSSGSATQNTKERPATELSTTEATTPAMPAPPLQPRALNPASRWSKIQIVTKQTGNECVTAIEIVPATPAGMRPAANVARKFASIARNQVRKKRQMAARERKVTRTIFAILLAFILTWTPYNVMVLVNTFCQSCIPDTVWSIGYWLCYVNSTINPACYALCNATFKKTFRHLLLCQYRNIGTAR
Sequence of UniProt P25021 (whole entry, looked up): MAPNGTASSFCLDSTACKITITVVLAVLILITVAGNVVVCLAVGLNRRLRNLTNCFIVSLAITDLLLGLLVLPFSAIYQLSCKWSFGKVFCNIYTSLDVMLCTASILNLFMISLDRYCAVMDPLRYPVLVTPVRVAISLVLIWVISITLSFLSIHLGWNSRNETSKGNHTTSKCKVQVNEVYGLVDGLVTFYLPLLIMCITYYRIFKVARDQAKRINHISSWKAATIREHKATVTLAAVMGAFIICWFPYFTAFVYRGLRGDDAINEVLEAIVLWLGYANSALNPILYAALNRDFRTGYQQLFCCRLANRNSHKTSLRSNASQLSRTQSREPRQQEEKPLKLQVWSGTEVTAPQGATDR
Sequence of UniProt P13945 (whole entry, looked up): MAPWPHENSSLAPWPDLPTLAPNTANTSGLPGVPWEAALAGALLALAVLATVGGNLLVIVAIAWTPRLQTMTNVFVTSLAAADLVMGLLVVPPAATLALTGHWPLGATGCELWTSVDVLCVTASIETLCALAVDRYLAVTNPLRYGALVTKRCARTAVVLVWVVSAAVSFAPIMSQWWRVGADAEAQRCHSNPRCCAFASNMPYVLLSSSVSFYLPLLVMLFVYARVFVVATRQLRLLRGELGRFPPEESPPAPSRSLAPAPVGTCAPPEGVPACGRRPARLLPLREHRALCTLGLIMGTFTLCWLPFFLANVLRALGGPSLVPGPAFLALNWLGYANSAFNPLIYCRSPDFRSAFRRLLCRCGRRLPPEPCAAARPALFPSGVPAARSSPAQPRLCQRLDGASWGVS
Sequence of UniProt P08588 (whole entry, looked up): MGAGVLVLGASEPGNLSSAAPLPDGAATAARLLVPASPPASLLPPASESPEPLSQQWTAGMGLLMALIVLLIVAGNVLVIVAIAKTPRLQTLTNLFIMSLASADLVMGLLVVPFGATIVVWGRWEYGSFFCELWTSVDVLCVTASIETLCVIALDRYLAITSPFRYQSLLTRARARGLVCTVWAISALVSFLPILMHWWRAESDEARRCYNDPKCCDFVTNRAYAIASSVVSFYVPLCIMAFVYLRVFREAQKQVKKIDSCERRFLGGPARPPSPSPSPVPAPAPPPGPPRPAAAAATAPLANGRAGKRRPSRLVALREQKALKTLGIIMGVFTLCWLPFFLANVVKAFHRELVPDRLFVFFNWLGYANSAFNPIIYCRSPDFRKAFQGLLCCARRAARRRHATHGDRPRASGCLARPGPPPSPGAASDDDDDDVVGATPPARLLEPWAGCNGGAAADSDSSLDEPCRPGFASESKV
Sequence of UniProt P35462 (whole entry, looked up): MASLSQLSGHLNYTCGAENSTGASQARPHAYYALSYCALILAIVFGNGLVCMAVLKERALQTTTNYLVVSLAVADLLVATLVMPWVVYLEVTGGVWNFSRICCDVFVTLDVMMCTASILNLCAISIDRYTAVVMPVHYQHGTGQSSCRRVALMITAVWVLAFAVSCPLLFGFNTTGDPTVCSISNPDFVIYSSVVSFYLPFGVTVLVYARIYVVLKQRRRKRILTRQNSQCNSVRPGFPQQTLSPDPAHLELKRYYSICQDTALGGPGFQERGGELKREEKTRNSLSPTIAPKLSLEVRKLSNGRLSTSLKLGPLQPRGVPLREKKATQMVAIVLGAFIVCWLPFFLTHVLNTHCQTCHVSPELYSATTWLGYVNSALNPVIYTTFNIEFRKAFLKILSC
Sequence of UniProt P18089 (whole entry, looked up): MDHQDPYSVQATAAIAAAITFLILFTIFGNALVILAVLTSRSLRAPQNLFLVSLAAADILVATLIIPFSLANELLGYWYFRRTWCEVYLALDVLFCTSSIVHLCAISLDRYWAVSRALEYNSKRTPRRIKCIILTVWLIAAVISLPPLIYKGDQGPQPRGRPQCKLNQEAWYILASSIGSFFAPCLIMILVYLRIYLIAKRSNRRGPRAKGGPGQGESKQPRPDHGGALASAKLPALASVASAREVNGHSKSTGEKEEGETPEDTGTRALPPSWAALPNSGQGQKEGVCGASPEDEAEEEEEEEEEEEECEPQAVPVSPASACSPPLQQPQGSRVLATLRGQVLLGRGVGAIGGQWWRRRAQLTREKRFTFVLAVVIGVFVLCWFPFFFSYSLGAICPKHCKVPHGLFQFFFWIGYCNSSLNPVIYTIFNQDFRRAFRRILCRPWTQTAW

Block 1
SMILES: CO[C@@H]1[C@@H](OC(N)=O)[C@@H](O)[C@H](Oc2ccc3c(O)c(NC(=O)c4ccc(O)c(CC=C(C)C)c4)c(=O)oc3c2C)OC1(C)C
Method: CellTiter-Glo
cell line	concentration	time	reference	viability
UWB1.289 parental	6.25 µM	6 days	untreated	88.1%
RPE-1 wild type	200 µM	6 days	untreated	91.5% and 98.2%
RPE-1 BRCA1-/- PARPi-resistant R4	100 µM	6 d		66.3% and 57.7%
RPE-1 BRCA1-/- PARPi-resistant R3	200 µM	6 d		42.4%
MDA-MB-436 PARPi-resistant	25 µM	6 days	untreated	100% and 93.5% and 94.2% and 96.2% and 67.9% and 77%
MDA-MB-436 (BRCA1-mutant)	6.3 µM	6 days	untreated	104% and 85.9% and 110% and 103% and 80%

Block 2
Cell line: mouse MPNST tumor cells
Method: high-content immunofluorescence imaging
Measured: nuclear SOX9
Concentration: 10 µM
Time: 12 h
Notes: mean of 2 replicates
Reference: DMSO control
Direction: higher = more nuclear SOX9
Structure (SMILES)	nuclear SOX9 intensity
CN(CC[C@@H](Oc1ccc(C(F)(F)F)cc1)c1ccccc1)CC(=O)O	89.2 % of DMSO
COc1cc([C@@H]2c3cc4c(cc3[C@@H](O[C@@H]3O[C@@H]5CO[C@@H](C)O[C@H]5[C@H](O)[C@H]3O)[C@H]3COC(=O)[C@H]23)OCO4)cc(OC)c1O	120 % of DMSO and 141 % of DMSO
COc1ccc(CC2c3cc(OC)c(OC)cc3CC[N+]2(C)CCC(=O)OCCCCCOC(=O)CC[N+]2(C)CCc3cc(OC)c(OC)cc3C2Cc2ccc(OC)c(OC)c2)cc1OC (stereo not shown)	87 % of DMSO
COc1ccc2c(NC(=O)Nc3cccc(C(F)(F)F)n3)ccnc2c1	71.2 % of DMSO
O=C1CCCC(=O)C1C(=O)c1ccc(C(F)(F)F)cc1[N+](=O)[O-]	88.4 % of DMSO
CCOc1c2c(c(OCC)c3ccccc13)C(=O)N(c1ccc(CC(=O)NS(=O)(=O)c3ccccc3)cc1)C2	98.5 % of DMSO
N[C@@H](Cc1cc(CP(=O)(O)O)cc(-c2ccccc2Cl)c1)C(=O)O	102 % of DMSO
CCc1cccc(N(C)C(=N)Nc2cccc3ccccc23)c1	162 % of DMSO
CC(C)CC(=O)N[C@H](C(=O)N[C@H](C(=O)N[C@@H](CC(C)C)[C@@H](O)CC(=O)N[C@@H](C)C(=O)N[C@@H](CC(C)C)[C@@H](O)CC(=O)O)C(C)C)C(C)C	97.1 % of DMSO

Block 3
Compound: CCS(=O)(=O)c1cc2cc(C[C@](O)(CC(C)(C)c3ccc(F)cc3C(N)=O)C(F)(F)F)[nH]c2cn1
Read-out: ligand displacement
Concentration: 10 µM
target	inhibition
Beta-1 adrenergic receptor (ADRB1, Homo sapiens, UniProt P08588)	-14.1%
Alpha-2B adrenergic receptor (ADRA2B, Homo sapiens, UniProt P18089)	24.7%
Alpha-1A adrenergic receptor (ADRA1A, Homo sapiens, UniProt P35348)	-0.31%
Beta-3 adrenergic receptor (ADRB3, Homo sapiens, UniProt P13945)	13%
Muscarinic acetylcholine receptor M4 (CHRM4, Homo sapiens, UniProt P08173)	13.1%
Histamine H2 receptor (HRH2, Homo sapiens, UniProt P25021)	12.3%
D(1A) dopamine receptor (DRD1, Homo sapiens, UniProt P21728)	-20.9%
D(3) dopamine receptor (DRD3, Homo sapiens, UniProt P35462)	7.81%

Block 4
SMILES: C=CCc1ccc(O)c(-c2ccc(O)c(CC=C)c2)c1
Read-out: chloride current
Method: whole-cell voltage clamp
ANO1 del476-501/F646A: Anoctamin-1 (ANO1, Homo sapiens, UniProt Q5XXA6, del476-501/F646A)
Sequence of UniProt Q5XXA6 (whole entry, unmodified, looked up): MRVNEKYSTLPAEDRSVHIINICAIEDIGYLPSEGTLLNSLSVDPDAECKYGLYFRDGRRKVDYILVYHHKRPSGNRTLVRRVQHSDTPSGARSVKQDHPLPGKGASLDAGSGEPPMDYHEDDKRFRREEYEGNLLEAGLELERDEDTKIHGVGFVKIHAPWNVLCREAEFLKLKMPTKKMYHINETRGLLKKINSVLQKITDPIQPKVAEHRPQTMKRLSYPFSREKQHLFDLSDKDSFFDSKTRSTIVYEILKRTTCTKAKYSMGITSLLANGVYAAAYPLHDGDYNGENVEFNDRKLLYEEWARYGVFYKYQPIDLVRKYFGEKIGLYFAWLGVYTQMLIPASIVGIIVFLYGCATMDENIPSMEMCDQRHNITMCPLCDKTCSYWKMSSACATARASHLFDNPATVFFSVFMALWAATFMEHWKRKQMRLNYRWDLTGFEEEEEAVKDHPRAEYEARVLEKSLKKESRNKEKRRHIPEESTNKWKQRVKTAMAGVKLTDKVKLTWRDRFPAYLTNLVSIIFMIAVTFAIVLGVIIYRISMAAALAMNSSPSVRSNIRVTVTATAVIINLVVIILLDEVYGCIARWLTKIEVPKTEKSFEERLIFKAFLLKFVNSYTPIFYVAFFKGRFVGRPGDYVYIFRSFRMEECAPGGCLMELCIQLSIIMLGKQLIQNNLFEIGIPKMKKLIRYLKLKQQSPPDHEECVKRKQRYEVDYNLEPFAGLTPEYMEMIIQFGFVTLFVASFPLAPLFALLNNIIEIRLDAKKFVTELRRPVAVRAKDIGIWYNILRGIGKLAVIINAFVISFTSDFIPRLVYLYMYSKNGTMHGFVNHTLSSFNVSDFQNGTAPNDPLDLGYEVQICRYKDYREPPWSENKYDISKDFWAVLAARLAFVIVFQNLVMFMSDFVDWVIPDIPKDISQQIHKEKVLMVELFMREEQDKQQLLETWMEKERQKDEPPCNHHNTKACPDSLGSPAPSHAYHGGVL
ANO1 del476-501/R631I: Anoctamin-1 (ANO1, Homo sapiens, UniProt Q5XXA6, del476-501/R631I)
target	action	notes	pIC50
ANO1 del476-501/F646A		membrane voltage -100 mV	5.15
Anoctamin-1 (ANO1, Homo sapiens, UniProt Q5XXA6, del476-501/R631D)	inhibitor	R605D mutant at -100 mV	4.57
ANO1 del476-501/F646A		membrane voltage -60 mV	5.28
Anoctamin-1 (ANO1, Homo sapiens, UniProt Q5XXA6, del476-501/E650A)		membrane voltage 20 mV	5.49
ANO1 del476-501/R631I	inhibitor	R605I mutant at 100 mV	4.49
Anoctamin-1 (ANO1, Homo sapiens, UniProt Q5XXA6, del476-501/F623A)		membrane voltage 40 mV	5.07
ANO1 del476-501/R631I	inhibitor	R605I mutant at 40 mV	4.63
Anoctamin-1 (ANO1, Homo sapiens, UniProt Q5XXA6, del476-501/F628I)	inhibitor	F602I mutant at -100 mV	4.65
